Measured values gathered from unrelated publications.
Several values in a cell are separate wells, animals, samples, runs or records. ± marks the error that the study gave.

FC(F)(F)c1ccc(CNc2ccc(Cc3c[nH]c4ncc(Cl)cc34)cn2)cn1  adverse event incidence (refers to: Vomiting; patients with advanced solid tumours; oral, dose not given, grade 1 and 2, possibly related to drug): 22%
O=C(Nc1nc2cccc(-c3ccc(CN4CCS(=O)(=O)CC4)cc3)n2n1)C1CC1  treatment-emergent adverse events (refers to: injection site haematoma; human rheumatoid arthritis patients; oral, 200 mg once daily, 4 weeks, regardless of relatedness): 0%
CC(=O)N[C@@H](CCC(=O)O)C(=O)O  log2 fold change (binding, MIDAS equilibrium dialysis LC-MS; A2AR-BRIL thermostabilized; concentration not given; reference: no-protein control): 0.00726
CC(C)[N+](C)(CCOC(=O)C1c2ccccc2Oc2ccccc21)C(C)C  remaining compound (mouse, CD-1, both sexes, whole blood; 5 µM, 60 min): 46.5%
CCN1/C(=C/C(C)=O)Sc2ccc(F)cc21  heart rate (cynomolgus monkey; oral, 10 mg/kg, 6 h post-dose): 110 ± 32 beats/min
C[C@@H](Oc1ccc(S(C)(=O)=O)cc1C(=O)N1C[C@@H]2C[C@]2(c2cc(C(F)(F)F)on2)C1)C(F)(F)F  renal clearance at steady state (elderly humans, urine; oral, 25 mg once daily, 0-24 h, multiple dose, geometric mean): 5.26 mL/min
NC1(C(=O)N[C@@H](CCO)c2ccc(Cl)cc2)CCN(c2nc[nH]c3nccc2-3)CC1  incidence of Vomiting (metastatic CRPC patients; 320 mg b.i.d., grade 3 to 4, treatment-related, with: enzalutamide 160 mg daily): 0%
Cc1coc([C@H]2C[C@H]3[C@@H](CF)SC(N)=N[C@@]3(c3ccc(F)cc3F)CO2)n1  brain concentration (male 129/SVE mouse, brain; subcutaneous, 80 mg/kg, 14 h): 0.052 µM
COC(=O)C1=CO[C@@H](O[C@@H]2O[C@H](CO)[C@@H](O)[C@H](O)[C@H]2O)[C@@H]2C(CO)=CC[C@H]12  accuracy (rat plasma; 200 ng/mL, 2 weeks, -70 °C, post-preparative stability): 103%
Cc1ccc(-c2ccccc2C(=O)NC[C@@]2(C3CC3)NC(=O)NC2=O)cc1  blood clearance (rat Wistar male; intravenous): 30 mL/min/kg
C=C[C@@](C)(/C=C/c1ccc(O)cc1)CCC=C(C)C  accuracy (post-procedure stability; rat plasma; 8 ng/mL, 3 h, room temperature): 115%
CC(C)C[C@H](NC(=O)[C@@H](Cc1c[nH]c2ccccc12)NC(=O)[C@H](Cc1ccc(O)cc1)NC(=O)[C@H](CO)NC(=O)[C@H](Cc1c[nH]c2ccccc12)NC(=O)[C@H](Cc1c[nH]cn1)NC(=O)[C@@H]1CCC(=O)N1)C(=O)N[C@@H](CCCNC(=N)N)C(=O)N1CCC[C@H]1C(=O)NCC(N)=O  patients, drug-related TEAEs (Chinese CPP children, overall; intramuscular, 22.5 mg, 12 months, day 1, month 6): 19.7%
O=C(O)CCC(=O)O.[2H]C([2H])([2H])Oc1cc(C)c2[nH]ccc2c1CN1CC[C@@H](C2CC2)C[C@H]1c1ccc(C(=O)O)cc1  subjects with elevated LDL TEAE (multiple ascending dose; healthy Chinese subjects; 200 mg once daily): 12.5%
Cc1cc(Nc2ccc(S(F)(F)(F)(F)F)cc2)n2nc(C(C)(F)F)nc2n1  adverse event Vomiting (Plasmodium vivax malaria patients; oral, 600 mg): 11.1%
Cl.[2H]C([2H])([2H])CC(=O)c1cnc(NC(=O)C2CC2)cc1Nc1cccc(-c2ncn(C([2H])([2H])[2H])n2)c1OC  AUC(0-tau) (geometric mean; human; oral, 40 mg twice daily, day 14, fasted, tablet, multiple dose): 3250 ng·h/mL
C[C@@H](Oc1ccc(S(C)(=O)=O)cc1C(=O)N1C[C@@H]2C[C@]2(c2cc(C(F)(F)F)on2)C1)C(F)(F)F  subjects with somnolence (human; oral plus intravenous microtracer, dose not given): 16.7%
CNCCOC12CC3(C)CC(C)(CC(Cn4ncc(-c5ccc(N6CCc7cccc(C(=O)Nc8nc9ccccc9s8)c7C6)nc5C(=O)O)c4C)(C3)C1)C2  mean arterial pressure change (beagle dog, male, anaesthetised; intravenous bolus, 0.03 mg/kg, 120 min; reference: baseline): -3%
C[C@H](N[C@@H](CCc1ccccc1)C(=O)O)C(=O)N1[C@H](C(=O)O)C[C@H]2CCCC[C@@H]21  autosampler stability (processed human plasma; 1000 pg/mL, 48 h, 4 °C; reference: nominal): 93.2 ± 14%
O=C(Nc1cnccc1Cl)N1CCN(Cc2ccc3c(c2)OC(F)(F)O3)CC1  adverse event incidence (refers to: Dizziness; human healthy young men; 75 mg, multiple dose): 0%
CC[C@H](N)C(=O)O  log2 fold change (binding, MIDAS equilibrium dialysis LC-MS; A2AR-BRIL thermostabilized; concentration not given; reference: no-protein control): -0.0684
c1ccc2c(c1)ccc1cc3c(ccc4ccccc43)cc12  literature range of log K (polyethylene-water partitioning; PAH compilation): 5.64 to 7.32 log units
C1=C/COCc2cc(ccc2OCCN2CCCC2)Nc2nccc(n2)-c2cccc(c2)COC/1  apparent volume of distribution (Sprague-Dawley rats, male, plasma; oral, dose not given, with: isavuconazole; reference: isavuconazole alone): 54 % decrease
FC(F)(F)c1ccc(CNc2ccc(Cc3c[nH]c4ncc(Cl)cc34)cn2)cn1  treatment-related adverse events (refers to: weight increased; human, advanced solid tumours, all patients; oral, 1000 mg/day, any grade): 4%
CC(C)C[C@H](N)C(=O)N[C@@H](Cc1c[nH]c2ccccc12)C(=O)N[C@@H](Cc1c[nH]c2ccccc12)C(=O)N[C@@H](CCCNC(=N)N)C(=O)N[C@@H](Cc1c[nH]c2ccccc12)C(=O)N[C@@H](Cc1c[nH]c2ccccc12)C(=O)N[C@@H](CCCNC(=N)N)C(=O)N[C@@H](Cc1c[nH]c2ccccc12)C(=O)N[C@@H](CCCNC(=N)N)C(=O)O  helix content (circular dichroism; 30 mM SDS): 3.65%
O=C(OC(C(F)(F)F)C(F)(F)F)N1CCN(Cc2cccc(Oc3ccccc3)c2)CC1  Ktrans (PET blocking study; rhesus monkey, brain Pons; 0.03 mg/kg, compound pretreatment, with: [18F]T-401 tracer): 0.0049 min⁻¹
CCCC(CCC)C(=O)Oc1cccc(C(O)CCN)c1.O=CO (stereo not drawn)  ERG, scotopic, rod b-wave (Abca4-/-Rdh8-/- mice, photic damage; oral, 20 mg/kg, 7 days, flash intensity 5): 99.9 µV and 160 µV and 97.4 µV and 132 µV and 147 µV and 191 µV
COc1cc(Nc2ncc3c(n2)-c2ccc(Cl)cc2C(c2c(F)cccc2OC)=NC3)ccc1C(=O)O  patients with adverse event (refers to: Diarrhea, all grades; cancer patients, phase 1/2; oral, dose not given, with: pembrolizumab): 17%
Cc1cc(NC2CCN(C(=O)OC3CCN(C(=O)/C=C/CN(C)C)C3)CC2)n2ncc(C(C)C)c2n1 (stereo not drawn)  patients with adverse event (Phase I dose escalation CTCAE v4.0, refers to: Fatigue; patients with advanced solid tumours; dose not given, all dose schedules any grade): 28%
N#Cc1ccc2c(c1)[C@H]1CCCN(C(=O)c3ccc4[nH]cnc4c3)[C@H]1C2  ACTH level change (human; 10 mg, day 15; reference: baseline): 1.6 pmol/L
O=C(O)C1=CO[C@@H](O[C@@H]2O[C@H](CO)[C@@H](O)[C@H](O)[C@H]2O)[C@@H]2C(CO)=CC[C@H]12  accuracy (three freeze-thaw cycles; rat plasma; 1000 ng/mL, -70 °C freeze): 92.4%
COc1ccc2c(c1)CN(C(=O)CCN1CCC(Cc3ccccc3)CC1)CC[S@@+]2[O-]  unbound plasma concentration (beagle dog, male, plasma; intravenous, 8 mg/kg, day 1, 14-day toxicity study): 7.51 µM
CC(C)[C@@H](CS(=O)(=O)C(C)C)N1C(=O)[C@@](C)(CC(=O)O)C[C@H](c2cccc(Cl)c2)[C@H]1c1ccc(Cl)cc1  brain distribution advantage (FVB mouse, Abcb1a/b knockout, brain; intravenous, 20 mg/kg, unit not given; reference: knockout Kp over wild-type Kp): 33.5
Oc1ccc(Br)c2cccnc12  partition coefficient (oil/water; pH 5.4): 89.5
CC(C)(C)c1ccc(O)c(CN(Cc2cc(C(C)(C)C)ccc2O)C2CCC(NC(N)=O)CC2)c1 (stereo not drawn)  dose-normalised Cmax (C57BL/6 mouse, male, plasma; oral, 10 mg/kg): 102 ng/mL per mg/kg
CCc1cc(C(=O)NC)c2nccc(N3CCc4c(cc(Cn5ccnc5)cc4-c4cn(C)nc4C(F)(F)F)C3=O)c2c1  serum cholesterol change (Sprague Dawley rats; oral, 50 mg/kg once daily, 7 days; reference: vehicle): -0.9%
NC(=O)c1cc(Oc2ccc(NC(=O)Nc3ccc(Cl)c(C(F)(F)F)c3)c(F)c2)cc[n+]1[O-]  autosampler stability (reconstituted solution; up to 24 h, 4 °C; reference: initial concentration): < 15%
OC[C@H]1O[C@@H](c2ccc(Cl)c(Cc3ccc(O[C@H]4CCOC4)cc3)c2)[C@H](O)[C@@H](O)[C@@H]1O  change in HDL cholesterol (Japanese type 1 diabetes patients, blood; 10 mg, day 28; reference: baseline): 0.58 mg/dL
CC(C(=O)NCC(=O)NCC(CNC(=O)CNC(=O)C(C)N1CCN(CC(=O)[O-])CCN(CC(=O)[O-])CCN(CC(=O)[O-])CC1)(CNC(=O)CNC(=O)C(C)N1CCN(CC(=O)[O-])CCN(CC(=O)[O-])CCN(CC(=O)[O-])CC1)CNC(=O)CNC(=O)C(C)N1CCN(CC(=O)[O-])CCN(CC(=O)[O-])CCN(CC(=O)[O-])CC1)N1CCN(CC(=O)[O-])CCN(CC(=O)[O-])CCN(CC(=O)[O-])CC1.[Gd+3].[Gd+3].[Gd+3].[Gd+3] (stereo not drawn)  Gd concentration ratio (cynomolgus monkey; day 5; reference: skin over brain): ~10 fold
CC(=O)N(C)C1CCN(c2cc(F)cc(NC(=O)c3cc4c(F)ccc(C)c4[nH]3)c2)C1 (stereo not drawn)  fraction absorbed (CD1 mouse; oral, 50 mg/kg): < 0.01
Cc1ccc([C@@H]2O[C@H](CO)[C@@H](O)[C@H](O)[C@H]2O)cc1Cc1ccc(-c2ccc(F)cc2)s1  urinary magnesium excretion change (Japanese type 2 diabetes patients; 400 mg, day 5, 24 h urine collection; reference: baseline): -6.59 mg
CC1(C)CCC(CN2CCN(c3ccc(C(=O)NS(=O)(=O)c4ccc(NCC5CCOCC5)c([N+](=O)[O-])c4)c(Oc4cnc5[nH]ccc5c4)c3)CC2)=C(c2ccc(Cl)cc2)C1  C0/D fold change (patients on VA-based chemotherapy; oral, dose not given, with: triazole antifungals; reference: without triazoles): 1
CNC(=O)c1ccc(-c2cnc3ncc(Cc4ccc5ncccc5c4)n3n2)cc1F  patients with adverse event (refers to: Ascites, all grades; cancer patients; oral, dose not given, dose escalation, any causality): 18%
Cc1ccc(N(C)C(=O)/C=C/c2ccco2)cc1  licking latency (cold plate test; mice; oral, 30 mg/kg daily for 7 days, 60 min after dose, day 8): 19.8 ± 0.5 s
CNC(=O)c1ccc(-c2cnc3ncc(Cc4ccc5ncccc5c4)n3n2)cc1F  AUC(0-t) (human severe hepatic impairment NCI; oral, 200 mg single dose, mean): 5300 ng·h/mL
CNc1ccc(-c2nc3ccc(O)cc3s2)cc1 [carbon-11 labelled]  SUV (ex vivo biodistribution; APP/PS1 mouse, AD model, skin; intravenous, 30 min): 0.295 ± 0.144
C=CC(=O)N1CCC(c2ccc(C(N)=O)c(-c3ccc(Oc4ccccc4)cc3)n2)CC1  incidence (serious adverse event Hypoalbuminemia; patients with relapsed/refractory MCL; oral): 0.9%
CCn1cc(C(=O)N2CCOCC2)c(=O)c2cc(NC3Cc4ccccc4C3)cnc21  AUC(0-inf) (human, fasted; oral suspension, 150 mg single dose, arithmetic mean): 1950 ng·h/mL
Cc1c(-c2ccc(N3CCc4cccc(C(=O)Nc5nc6ccccc6s5)c4C3)nc2C(=O)O)cnn1CC12CC3(C)CC(C)(C1)CC(OCCNCC[C@H](O)CO)(C3)C2  mean arterial pressure change (beagle dog, anaesthetised; intravenous infusion, 0.1 mg/kg/min, 135 min; reference: baseline): -9 mmHg
Cc1cc(C)c(CNC(=O)c2cc(Cl)c3c(c2C)O[C@@](C)([C@H]2CC[C@H](N(C)C)CC2)O3)c(=O)[nH]1  patients with TEAE (refers to: Anemia; human patients; oral, 200 mg once daily, 1 day onset day 14): 8.3%
C=CC(=O)NC1CCN(c2ncc3ncnc(Nc4ccc(Oc5ccc6c(c5)ncn6C)c(C)c4)c3n2)CC1  adverse events incidence (refers to: back pain; human male; oral, dose not given, CTCAE on-treatment AEs): 0%
CC(C)n1c(Nc2cccnc2)nc2cnc(Nc3ccc(N4CCN(C)CC4)cc3)nc21  subjects with adverse event (refers to: platelet count decreased; healthy male subjects; oral, 100 mg, study, with: itraconazole): 7.1%
CNC(=O)c1ccc(-c2cnc3ncc(Cc4ccc5ncccc5c4)n3n2)cc1F  Pneumonitis dose reduction/interruption (Japanese patients; oral, 400 mg, any grade): 1%
CCOc1c([C@H](C)n2nc(C)c3c(N)ncnc32)cc(Cl)c(F)c1[C@@H]1CNC(=O)C1  ECG observations (refers to: QTcF above 500 ms; previously treated B-cell malignancy; oral, 5 mg once daily, baseline QTcF ≤450 ms): 0%
Cn1cc(Nc2nccc(-c3ccc4c(c3)CN(C3COC3)CC[C@H]4NC(=O)c3cn(C(C)(C)C)nn3)n2)cn1  percent change from baseline (refers to: CD8+ T cell count; human, clinical trial, whole blood; 50 mg twice daily, follow-up): -5.96%
CN1C(=O)c2ccccc2[S@+]([O-])c2ccc(C(=O)NCCc3cccs3)cc21  brain concentration (C57BL/6 mouse, male, brain; intraperitoneal, 30 mg/kg, single dose, 12 h, quantification limit 1 ng/mL): not detected
C[Si](C)(C)O[Si](C)(C)O[Si](C)(C)C  entropy of phase change (air/water; concentration not given): 0.191 kJ/(mol·K)
COc1cc(N2CCC(N3CCN(C)CC3)CC2)ccc1Nc1ncc(Cl)c(Nc2ccccc2P(C)(C)=O)n1  radioactivity recovered (human male, urine; oral, 180 mg; reference: dose): 25%

Repeated from above:
COc1cc(Nc2ncc3c(n2)-c2ccc(Cl)cc2C(c2c(F)cccc2OC)=NC3)ccc1C(=O)O  patients with adverse event (refers to: Diarrhea, all grades; cancer patients, phase 1/2; oral, dose not given, with: pembrolizumab): 17%
Cc1cc(NC2CCN(C(=O)OC3CCN(C(=O)/C=C/CN(C)C)C3)CC2)n2ncc(C(C)C)c2n1 (stereo not drawn)  patients with adverse event (Phase I dose escalation CTCAE v4.0, refers to: Fatigue; patients with advanced solid tumours; dose not given, all dose schedules any grade): 28%
N#Cc1ccc2c(c1)[C@H]1CCCN(C(=O)c3ccc4[nH]cnc4c3)[C@H]1C2  ACTH level change (human; 10 mg, day 15; reference: baseline): 1.6 pmol/L
